# Published values gathered from unrelated publications.
# Parts stem from different laboratories: compare values within a part only.

# Study 1
# Target: RING finger protein unkempt homolog, zinc fingers 1-6, GST-SBP tag (UNK, Homo sapiens, UniProt Q9C0B0, residues 30-357)
# Method: RNA Bind-n-Seq
# Form: RNA
# Medium: in vitro
# Tested at: not given
# Setting: RNA with constant flanks, human-mouse chimeric sites, ends assumed
# Relative to: input RNA pool
# Direction: higher = stronger binding
# All sequences stand within: GGGAGUUCUACAGUCCGACGAUC … CAACAGAGGAUUGAGCAUCA
# Residues (chain): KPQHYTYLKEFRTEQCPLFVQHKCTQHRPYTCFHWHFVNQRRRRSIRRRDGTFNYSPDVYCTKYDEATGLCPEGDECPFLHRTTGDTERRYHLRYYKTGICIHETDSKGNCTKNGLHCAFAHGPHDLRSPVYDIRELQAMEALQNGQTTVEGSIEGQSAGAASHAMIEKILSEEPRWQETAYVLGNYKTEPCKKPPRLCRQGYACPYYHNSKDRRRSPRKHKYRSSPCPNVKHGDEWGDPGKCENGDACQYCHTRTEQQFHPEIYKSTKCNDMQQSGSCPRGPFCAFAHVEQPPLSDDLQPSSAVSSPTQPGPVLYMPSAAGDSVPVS
Strand,bound/input enrichment
GAGCGUCUUGCCCGCACUGGGAUCAUCGUGACCACUAGUGAGGCUGUUCUGCUUCAGCUGGUGGCUGACAAAGACCACCCGAAGUUCAAGGAAAUUCAGAACCUAAUUAAGGCGAGUGCC,0.108 ratio
CCCCAAUUACCAUCUGUGGUCUGGAACUGCACUCUCUUUUUUAAAAAACAUGUAUACAUUUUAGGGCUGUAGACUUAUUUUCCUGGUUUUGUUUUUCAUUGCUGACUUUUGAGCACAGAA,1.8 ratio
GCGGCAGAAUCAUGGAGGACAUAAUGCAGCUCCCCAAAGCGCGCGUCAACGCCAGCAUGUUACCACAAUUCAUCGACCGGCCCGUGUGCUUCGUAGGGAAGCUGGAAAAGAUUCAUCCCA,0.135 ratio
GUCAACAGCUGCCUCAAUCCCAUUCUCUAUGCUUUCUUGGAUGAGAACUUCAAGGCCUGCUUCCGCAAGUUCUGCUGUGCAUCUGCCCUGCGCCGGGACGUGCAGGUGUCUGACCGCGUG,0.458 ratio
GUGUCCUGCUUUCAACUUAAAUCACUGCAUUUUUACUACUGUUCUGUGAGCAUCAGGACUGUAGCGCUGUGUCACCACAUGAGAGUUGUUAAGCAGCCUUUCUGUGGAGGGUGGGAAUGA,0.147 ratio
CCAAUUGUGGAGCAGUACUUGAAGACAAAGAAAAAUUCUAAUAAUUUAAUCAUCAAGUACAUUAGCUGCCGCCUGCUGACAUUUGUGAUUAUACUGUUGGCAUGUAUCUACCUGGGCUAU,0.401 ratio
UUUCUACUGCAGCAAACGAUGCUAAGAAUUAAGGAUCCUAAGAAGUCCCUGGAUUUUUAUACUAGAGUUCUUGGACUGACGCUAAUCCAGAAGCUUGACUUCCCUGCUAUGAAGUUCUCG,0.0851 ratio
UUGCCUGAGAACGAGGAUGAGCUGGAGAGCACCAACAGGCGCUACACCAAGAGGGACUGCAGCACUUUCCUCAGAACUAGUGAGACGGGCAUCGUGGACCAGGUCAUGGUCACUCUCAAC,0.0834 ratio

# Study 2
# Target: Sal-like protein 4, full length isoform B (SALL4, Homo sapiens, UniProt Q9UJQ4-2, residues 1-616)
# Method: universal PBM
# Form: double-stranded DNA, one strand shown
# Medium: in vitro
# Tested at: not given
# Setting: 8-mer, flanks averaged, mean of replicates
# Direction: higher = stronger binding
Strand,E-score
TCTACCAA,0.149
ACGTACCC,0.0129
CAGCGCAC,-0.195
GATCCGGC,-0.201
AATTGCGC,0.0888
ACGATCCG,-0.172
CGTTCGGA,-0.291
CGGGAGAA,-0.157

# Study 3
# Target: Replicase polyprotein 1ab, polymerase (rep, Severe acute respiratory syndrome coronavirus 2, UniProt P0DTD1)
# Effect on: enzyme activity
# Action: inhibitor
# Tested at: 20 µM
Compound,inhibition
CS(=O)(=O)OCCCCOS(C)(=O)=O,5.94%
CN1CCCC(n2nc(Cc3ccc(Cl)cc3)c3ccccc3c2=O)CC1 (stereo not shown),-0.39%
C[C@H]1[C@H](C)CC[C@]2(C(=O)O)CC[C@]3(C)C(=CC[C@@H]4[C@@]5(C)C[C@@H](O)[C@H](O)C(C)(C)[C@@H]5CC[C@]43C)[C@H]12,7.7%
COc1ccc2c(Oc3ccc(NC(=O)c4c(C)n(CC(C)(C)O)n(-c5ccccc5)c4=O)nc3)ccnc2c1,15.8%
C[C@H]1NC(=O)NC1=O,1.56%
C[C@]1(O)C[C@@H](c2nc(-c3ccc4ccc(-c5ccccc5)nc4c3)c3c(N)nccn32)C1,2.13%
CC1(C)S[C@@H]2[C@H](/N=C/N3CCCCCC3)C(=O)N2[C@H]1C(=O)O,0.74%
CCc1cc(Cl)c(OC)c(C(=O)NC[C@@H]2CCCN2CC)c1O,-0.43%
C[C@](N)(Cc1ccc(O)c(O)c1)C(=O)O,22.6%
CC(C)c1ccc(NC(=O)Cn2cnc3c2c(=O)n(C)c(=O)n3C)cc1,2.04%
CCC/N=C1\S/C(=C\c2ccc(OC[C@H](O)CO)c(Cl)c2)C(=O)N1c1ccccc1C,1.26%
Cc1ccc(Sc2ccccc2N2CCNCC2)c(C)c1,9.02%
O=C(NCc1ccc(OC(F)(F)F)cc1)C1c2ccccc2C(=O)N1C1CCOCC1 (stereo not shown),-26%
C[C@@H]1NC(C)(C)CO[C@@]1(O)c1cccc(Cl)c1,-1.56%
O=C(O)c1ccc(S(=O)(=O)N(Cc2ccc(OC(F)(F)F)cc2)c2ncc(C(F)(F)F)cc2Cl)cc1,-2.66%
C#C[C@]1(OC(=O)CCCCCC)CC[C@H]2[C@@H]3CCC4=CC(=O)CC[C@@H]4[C@H]3CC[C@@]21C,-8.62%
CSc1nc(-c2ccnc(NC(C)c3ccccc3)c2)c(-c2ccc(F)cc2)[nH]1 (stereo not shown),0.79%
O=C(Nc1ccccc1C(=O)Nc1ccc(CCO)cc1)c1ccc([N+](=O)[O-])cc1,3.56%
O=Cc1ccc(CO)o1,-6.21%
NCCNc1ccc(NCCN)c2c1C(=O)c1ccncc1C2=O,95.6%
CC(C)CC(=O)N[C@H](C(=O)N[C@H](C(=O)N[C@@H](CC(C)C)[C@@H](O)CC(=O)N[C@@H](C)C(=O)N[C@@H](CC(C)C)[C@@H](O)CC(=O)O)C(C)C)C(C)C,2.84%
Nc1ccc(/N=N/c2ccccc2)c(N)n1,9.04%
CC(C)NCC(O)c1ccc(N)c(C#N)c1 (stereo not shown),0.09%
COCCOCCOc1ccc(C2=N[C@@](C)(C(=O)O)CS2)c(O)c1,-9.8%
COC(=O)Nc1nc2cc(C(=O)c3ccc(F)cc3)ccc2[nH]1,-16.4%

# Study 4
# Cell line: HEK-293T/ACE2
# Tested at: concentration not given
# Time: 16 (unit not given)
# Relative to: vehicle
Compound,viability
C[C@@H](O[C@H]1OCCN(Cc2n[nH]c(=O)[nH]2)[C@H]1c1ccc(F)cc1)c1cc(C(F)(F)F)cc(C(F)(F)F)c1,98.7%
COCCOC(=O)C1=C(C)NC(C)=C(C(=O)OC(C)C)C1c1cccc([N+](=O)[O-])c1 (stereo not shown),105%
O=c1ccc2ccc(OCCCCN3CCN(c4cccc5sccc45)CC3)cc2[nH]1,81.2%

# Study 5
# Target: Replicase polyprotein 1ab, main protease (rep, Severe acute respiratory syndrome coronavirus 2, UniProt P0DTD1)
# Effect on: enzyme activity
# Action: inhibitor
# Tested at: 20 µM
# Setting: hit confirmation
Compound,inhibition
COc1ccc2[nH]c([S@@+]([O-])Cc3ncc(C)c(OC)c3C)nc2c1,99.1%
CN(C)c1ccc2c(c1)Sc1cc(N(C)C)ccc1N2,47.2%
O=[N+]([O-])C(Br)(CO)CO,100%

# Study 6
# Target: RNA binding protein fox-1 homolog 2, RRM domain, GST-SBP tag (RBFOX2, Homo sapiens, UniProt O43251-10, residues 100-194)
# Method: RNA Bind-n-Seq
# Form: RNA
# Medium: in vitro
# Tested at: 365 nM
# Setting: natural RNA segment, single round, ends assumed
# Relative to: no-protein control
# Direction: higher = stronger binding
# All sequences stand within: GGGAGUUCUACAGUCCGACGAUC … UGGAAUUCUCGGGUGCCAA
# Construct (chain): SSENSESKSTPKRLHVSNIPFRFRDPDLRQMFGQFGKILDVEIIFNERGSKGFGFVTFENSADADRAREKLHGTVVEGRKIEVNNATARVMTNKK
Strand,RBNS enrichment (R)
GAAGCCCCUGGCAUUUGCUGGGGAAGGGACUGGCCUGGUACUUGCUGUUAGGGCAGGAAGGGGCAAAAGGAAGACUUGGGUAGUAAUCUGGGGGUUCAGAUGGGUAGCAC,0.572
AGACAGGAUUCAGGGCAGUGCUCCGAAGCUGUGUGCUCACCUGGUUGGCUCAUCAAACCUGGCAACCCUGUGGCCUGUCUGCCGGAGCUGACUGGAUCCACUCAUCAAUU,0.219
CUGCGGUGCUGAGCCAGCAGAAAUGAUUUCUUCAGCAGAUGUACCAGCUGUCAUCACUGACGUAUGCACAAAACCAGACCGUUGAUCCCUGGUAUUCCAAGUUGAGUAUG,0.581
AAACACCCUUUAGUCUGUCAGUUGAAUUCAGAGCACUGAAAGGUGUUAAAUUGGGGUAUGUGGUUUGAUUGAUAAAAAGUUACCUCUCAGUAUUUUGUGUCACUGAGAAG,1.99
CUUAGCUGACUGUGCCCACGCCAGUCUUCAGGCACUGCAAGCAGCCGCUGGUCCCUGCUAUCCGAAGUGCCAUGCUUCCAGGAAGGACCAUGGGAAUGGUUUUGAGGACC,1.07
ACACUUGUUAAACAUAUUGCCCCUCAAUUUUGCACACUAUAUUCUUGUAUAUUAUUUCAAAUAAAAGAAAAAAAAGGUCUGUCUUUGAUUUCUGGUUGACUGAAUUCAUG,0.81
CCCCCACUCUCCCCACACUAACCUGGGUUCCCUUUCCUUCCAUCCCUACCCCCUAAGAGCCAUUUAGGGGCCACUUUUGACUAGGGAUUCAGGCUGCUUGGGAUAAAGAU,0.472
ACUACAGUUAAAACUACUCUUGCACUGCAACAGUGCAUAUGACCUUUAUGUGAUUGUACAGUAUUAAAAGUUUUUUCUUAUGUACAGUAAACUUUAUCAUAUGGCAGAAG,0.246

# Repeated from above (study 6):
Strand,RBNS enrichment (R)
ACACUUGUUAAACAUAUUGCCCCUCAAUUUUGCACACUAUAUUCUUGUAUAUUAUUUCAAAUAAAAGAAAAAAAAGGUCUGUCUUUGAUUUCUGGUUGACUGAAUUCAUG,0.81
AAACACCCUUUAGUCUGUCAGUUGAAUUCAGAGCACUGAAAGGUGUUAAAUUGGGGUAUGUGGUUUGAUUGAUAAAAAGUUACCUCUCAGUAUUUUGUGUCACUGAGAAG,1.99
AGACAGGAUUCAGGGCAGUGCUCCGAAGCUGUGUGCUCACCUGGUUGGCUCAUCAAACCUGGCAACCCUGUGGCCUGUCUGCCGGAGCUGACUGGAUCCACUCAUCAAUU,0.219
CUUAGCUGACUGUGCCCACGCCAGUCUUCAGGCACUGCAAGCAGCCGCUGGUCCCUGCUAUCCGAAGUGCCAUGCUUCCAGGAAGGACCAUGGGAAUGGUUUUGAGGACC,1.07
CUGCGGUGCUGAGCCAGCAGAAAUGAUUUCUUCAGCAGAUGUACCAGCUGUCAUCACUGACGUAUGCACAAAACCAGACCGUUGAUCCCUGGUAUUCCAAGUUGAGUAUG,0.581
GAAGCCCCUGGCAUUUGCUGGGGAAGGGACUGGCCUGGUACUUGCUGUUAGGGCAGGAAGGGGCAAAAGGAAGACUUGGGUAGUAAUCUGGGGGUUCAGAUGGGUAGCAC,0.572
ACUACAGUUAAAACUACUCUUGCACUGCAACAGUGCAUAUGACCUUUAUGUGAUUGUACAGUAUUAAAAGUUUUUUCUUAUGUACAGUAAACUUUAUCAUAUGGCAGAAG,0.246
CCCCCACUCUCCCCACACUAACCUGGGUUCCCUUUCCUUCCAUCCCUACCCCCUAAGAGCCAUUUAGGGGCCACUUUUGACUAGGGAUUCAGGCUGCUUGGGAUAAAGAU,0.472
